Measurements pooled from the literature.
Protocols differ between the studies behind these lines. Numbers after ± are the reported error.

Compound | cell line | assay | conditions | how to read | endpoint | result
CCn1cc(-c2cc(Cn3ccoc3=N)cc3c2CCN([C@@H](C)c2cc(OC)ccn2)C3=O)c(C(F)(F)F)n1 | Kasumi 1 | cell growth, inhibitor | 120 h |  | EC50 | 16.8 µM
CC(C)NCC(O)c1ccc(O)c(O)c1 (centres unmarked) | mouse ventricular cardiomyocytes |  | dose not given, 0.231 s |  | sarcomere length | 1.79 µm
O=C(CC1NCCCC1O)Cn1cnc2cc(Br)c(Cl)cc2c1=O (centres unmarked) | BT-16 | cell viability, MTT | 10 µM, 72 h |  | inhibition | 94.7%
Cn1cc(-c2ccc(-c3cncc(Cl)c3N3CCC4(CCNC4=O)CC3)cc2)cn1 | COLO 205 | gene expression, microarray, item: CDH11 mRNA | concentration not given, 2 h | reference: untreated cells | log2 fold change | 3.17
COc1cnc2cccc(N3CCc4c(cc(Cn5ccnc5C)cc4-c4cn(C)nc4C(F)(F)F)C3=O)c2c1 | HCC1588 | cell growth, inhibitor | 120 h |  | EC50 | 11.9 µM
CC(C)C[C@@H](C=O)NC(=O)[C@H](CC(C)C)NC(=O)[C@H](CC(C)C)NC(=O)OCc1ccccc1 | BT-16 | cell viability, MTT | 10 µM, 72 h |  | inhibition | 93.2%
COc1cc([C@@H]2c3cc4c(cc3[C@@H](O[C@@H]3O[C@@H]5CO[C@@H](C)O[C@H]5[C@H](O)[C@H]3O)[C@H]3COC(=O)[C@H]23)OCO4)cc(OC)c1O | HepG2 spheroids | flow cytometry | 1.7 µM, 96 h |  | S phase cells | 6.01 ± 4.65%
COc1cc([C@@H]2c3cc4c(cc3[C@@H](O[C@@H]3O[C@@H]5CO[C@@H](c6cccs6)O[C@H]5[C@H](O)[C@H]3O)[C@H]3COC(=O)[C@H]23)OCO4)cc(OC)c1O | BT-16 | cell viability, MTT | 10 µM, 72 h |  | inhibition | 89.6%
Cc1c(C)c2c(c(C)c1O)CCC(C)(COc1ccc(CC3SC(=O)NC3=O)cc1)O2 (centres unmarked) | HepG2 | extracellular flux, item: oxygen consumption rate | 6 h, distribution mode 1 |  | point of departure | 0.204 µM
O=P1(C2CCCCC2)CCCCC1 | PC-3 | MTT | 72 h | reference: IC50 HaCaT over IC50 PC-3 | selectivity index | 1.5
CCCS(=O)(=O)Nc1ccc(F)c(C(=O)c2c[nH]c3ncc(-c4ccc(Cl)cc4)cc23)c1F | SK-MEL-239 (BRAF V600E) | ERK phosphorylation, Western blot | 1 h |  | IC75 | 214 nM
CCn1c(=O)c(-c2cc[nH]n2)cc2c(C)nc(N)nc21 | RD | mRNA and protein, IFN-β, qRT-PCR and ELISA | 4 µM, 20 h, added: EV71 or poly(I:C) |  | IFN-β production | no effect
CC1(C)Oc2ccc(CC3=C(c4ccc(O)cc4)C(=O)NC3=O)cc2C[C@@H]1O | RPTEC | qPCR | 10 µg/mL, 24 h, basal, no LPS |  | COX-2 mRNA level | no effect
O=C(/C=C/C=C/C=C/C1CCCCC1)NC1=C[C@@](O)(/C=C/C=C/C=C/C(=O)NC2=C(O)CCC2=O)[C@@H]2O[C@@H]2C1=O | C32 | cell growth, CellTiter-Glo | 78 h |  | GI50 | 16.6 µM
COC(=O)Nc1nc2ccc(C(=O)c3cccs3)cc2[nH]1 | BT-16 | cell viability, MTT | 10 µM, 72 h |  | inhibition | 90.9%
CCn1cc(-c2cc(Cn3ccnc3)cc3c2CCN([C@H](c2cc(OC)ccn2)C2CC2)C3=O)c(C(F)(F)F)n1 | COLO-320-HSR | cell growth, inhibitor | 120 h |  | EC50 | > 30 µM
Cc1ccc(CNC(=O)Cn2cc(CSc3nc4ccccc4[nH]3)nn2)cc1 | MDA-MB-231 | MTT | 31.3 ppm |  | cytotoxicity | 87.6%
CCOc1cc(-c2nncn2C)ccc1Nc1ncc2cc(C)nc(N[C@@H](C)C(C)(C)C)c2n1 | CAL-51 | cell growth | 72 h |  | GI50 | 0.043 µM
C=Cc1c2[n-]c(c1C)/C=c1\[n-]/c(c(C)c1C=C)=C\c1[n-]c(c(CCC(=O)O)c1C)/C=c1\[n-]c(c(C)c1CCC(=O)O)=C2.[Sn+4] | SH-SY5Y | RNA-seq, item: MALL mRNA | 5 µM, 5 h | reference: untreated cells | fold change | 65.1
COc1cccc2c1c(O)c(C(=O)N(C)c1ccc(C(F)(F)F)cc1)c(=O)n2C | mouse bone marrow-derived macrophages | qPCR, item: Arg-1 | concentration not given, added: IL-4 |  | mRNA level | decreased

A few entries again:
Compound | cell line | assay | conditions | how to read | endpoint | result
CCOc1cc(-c2nncn2C)ccc1Nc1ncc2cc(C)nc(N[C@@H](C)C(C)(C)C)c2n1 | CAL-51 | cell growth | 72 h |  | GI50 | 0.043 µM
C=Cc1c2[n-]c(c1C)/C=c1\[n-]/c(c(C)c1C=C)=C\c1[n-]c(c(CCC(=O)O)c1C)/C=c1\[n-]c(c(C)c1CCC(=O)O)=C2.[Sn+4] | SH-SY5Y | RNA-seq, item: MALL mRNA | 5 µM, 5 h | reference: untreated cells | fold change | 65.1
